Assay results from different studies.
Compare with care: the assays were run in different laboratories. Numbers after ± are the reported error.
Ugcg: Ceramide glucosyltransferase (Ugcg, Mus musculus, UniProt O88693)
UniProt O88693, sequence (whole entry, looked up): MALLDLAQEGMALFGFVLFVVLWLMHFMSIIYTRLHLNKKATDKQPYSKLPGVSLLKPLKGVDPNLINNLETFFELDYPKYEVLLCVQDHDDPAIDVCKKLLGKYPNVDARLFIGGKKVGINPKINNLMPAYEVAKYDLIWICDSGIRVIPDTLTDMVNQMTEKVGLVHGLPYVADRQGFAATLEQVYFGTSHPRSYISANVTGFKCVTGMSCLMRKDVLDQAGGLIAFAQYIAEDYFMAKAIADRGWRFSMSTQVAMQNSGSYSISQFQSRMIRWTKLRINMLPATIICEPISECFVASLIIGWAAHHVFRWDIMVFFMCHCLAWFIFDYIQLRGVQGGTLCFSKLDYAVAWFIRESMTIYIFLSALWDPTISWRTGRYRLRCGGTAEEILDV
UniProt P00761, sequence (whole entry, looked up): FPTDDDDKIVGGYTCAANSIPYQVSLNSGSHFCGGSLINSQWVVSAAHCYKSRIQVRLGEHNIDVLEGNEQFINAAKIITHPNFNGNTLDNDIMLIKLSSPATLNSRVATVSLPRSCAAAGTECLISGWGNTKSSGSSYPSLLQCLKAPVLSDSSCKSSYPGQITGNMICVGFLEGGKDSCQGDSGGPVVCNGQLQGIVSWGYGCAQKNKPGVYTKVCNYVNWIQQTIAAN
UniProt P10635, sequence (whole entry, looked up): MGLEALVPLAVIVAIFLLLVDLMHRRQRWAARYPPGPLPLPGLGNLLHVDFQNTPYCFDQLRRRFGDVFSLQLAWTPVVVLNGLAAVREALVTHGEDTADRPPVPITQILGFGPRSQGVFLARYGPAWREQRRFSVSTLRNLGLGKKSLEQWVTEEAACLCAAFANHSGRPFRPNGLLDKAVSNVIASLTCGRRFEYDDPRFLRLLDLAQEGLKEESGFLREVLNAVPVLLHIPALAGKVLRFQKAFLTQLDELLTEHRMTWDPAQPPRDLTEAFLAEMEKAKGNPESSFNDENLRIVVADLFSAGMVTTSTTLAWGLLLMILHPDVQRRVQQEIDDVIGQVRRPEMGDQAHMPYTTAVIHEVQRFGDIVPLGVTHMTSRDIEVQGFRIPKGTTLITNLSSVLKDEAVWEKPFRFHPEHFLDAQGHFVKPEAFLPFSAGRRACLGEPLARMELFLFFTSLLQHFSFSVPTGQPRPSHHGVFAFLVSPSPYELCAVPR
UniProt O14965, sequence (whole entry, looked up): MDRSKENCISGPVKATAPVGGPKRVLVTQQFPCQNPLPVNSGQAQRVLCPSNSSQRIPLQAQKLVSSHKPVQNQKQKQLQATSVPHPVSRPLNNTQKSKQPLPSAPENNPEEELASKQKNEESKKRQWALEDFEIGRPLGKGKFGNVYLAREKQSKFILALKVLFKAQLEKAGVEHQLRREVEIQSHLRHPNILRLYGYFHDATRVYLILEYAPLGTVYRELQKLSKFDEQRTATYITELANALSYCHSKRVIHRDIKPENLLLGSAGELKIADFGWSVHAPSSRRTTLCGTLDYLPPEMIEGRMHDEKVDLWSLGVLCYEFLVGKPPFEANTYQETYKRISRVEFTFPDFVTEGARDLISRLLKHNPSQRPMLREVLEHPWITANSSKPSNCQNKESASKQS

CNC(=O)c1ccc([C@H]2[C@@H](F)[C@@H](F)C[C@@H](F)[C@H]2F)cc1 gave a hepatic clearance of 8.2 mL/min/kg (liver microsome stability; cynomolgus liver microsomes; 1 µM).
CCCCCCCN1C[C@H](O)[C@@H](O)[C@H](O)[C@@H]1CO has an IC50 of 4 µM (Ugcg; enzyme activity, inhibitor, fluorescence).
CN(C)c1cccc(-c2ccc([C@H]3[C@@H](F)[C@@H](F)C[C@@H](F)[C@H]3F)cc2)c1 has a hepatic clearance of 3.9 mL/min/kg (liver microsome stability; human liver microsomes; 1 µM, without NADPH).
Cc1nn(-c2cccc(N)c2)c(=O)c2cnc(Nc3ccc(N4CCNCC4)cc3)nc12 gave an IC50 of > 10 µM (Aurora kinase A (AURKA, Homo sapiens, UniProt O14965); SelectScreen kinase).
COC(=O)Nc1nc2cc(C(O)c3ccc(F)cc3)ccc2[nH]1 (stereo not drawn) gave a revertants of 15.3 revertants/plate (Salmonella typhimurium; Ames preincubation test; TA1537; 218.8 µg/plate, without S9).
Cc1cc(=O)c2c(O)c3c(O[C@@H]4O[C@H](CO)[C@@H](O)[C@H](O)[C@H]4O)cc(O)cc3cc2o1 gave a cell viability of 86.6 ± 16.8% (HepaRG co-cultured with HK-2; MTT; 66.67 µM, 24 h; reference: untreated control).
O=C(NCCO)c1ccc([C@H]2[C@@H](F)[C@@H](F)C[C@@H](F)[C@H]2F)cc1 has a hepatic clearance of 6.6 mL/min/kg (liver microsome stability; cynomolgus liver microsomes; 1 µM).
CNC(=O)C1CCCN(C(=O)C2CC3CCC2N3C(=O)[C@@H]2C[C@@H](O)CN2C(=O)NCc2cccc(Cl)c2F)C1 (mixture of isomers) gave a dextrorphan formation of 143 ng/mL (Cytochrome P450 2D6 (CYP2D6, Homo sapiens, UniProt P10635); enzyme activity, inhibitor, time-dependent inhibition; 16.7 µM, preincubated with NADPH).
With N#C[C@@H]1CC(F)(F)CN1C(=O)CNC(=O)c1ccnc2c(NC(=O)[C@@H](N)CCCCNC(=O)CCOCCOCCOCCOCCOCCOCCNC(=O)CN3CCN(CC(=O)[O-])CCN(CC(=O)[O-])CCN(CC(=O)[O-])CC3)cccc12.[177Lu+3] the tracer uptake was 1.17 %ID/g (U-87 MG tumour model; host not given, bone; 1 h, tumour-bearing).
For CC(=O)N[C@H](C(=O)N[C@H](C(=O)N[C@@H](CCCNC(=N)N)C(=O)N[C@@H](CC(N)=O)C(=O)N[C@@H](CC(=O)O)C(=O)N[C@H](C(=O)N1CCC[C@@H]1C(=O)N1CCC[C@H]1C(=O)N[C@@H](CC(=O)O)C(=O)N[C@@H](CO)C(=O)N[C@@H](CC(C)C)C(=O)N[C@@H](CC(C)C)C(=O)N[C@H](C(=O)N[C@@H](Cc1ccccc1)C(N)=O)C(C)C)C(C)C)[C@@H](C)O)C(C)C, concentration read “not detected” (HEK-293T; subcellular fractionation LC-MS; nuclear fraction; 20 µM, 24 h).
For CCCCCCCCCCCCCCCC(=O)N[C@@H](CCC(=O)NCCCC[C@H](NC(=O)[C@H](CCC(N)=O)NC(=O)[C@H](Cc1c[nH]cn1)NC(=O)[C@@H](NC(=O)[C@H](CCCCN)NC(=O)[C@H](CC(=O)O)NC(=O)[C@H](CCSC)NC(=O)[C@H](C)NC(=O)[C@@H](NC(=O)[C@H](CO)NC(=O)[C@H](Cc1ccc(O)cc1)NC(=O)[C@H](CC(=O)O)NC(=O)[C@H](CO)NC(=O)[C@@H](NC(=O)[C@H](Cc1ccccc1)NC(=O)[C@@H](NC(=O)CNC(=O)[C@H](CCC(=O)O)NC(=O)[C@H](C)NC(=O)[C@H](Cc1ccc(O)cc1)NCC(F)(F)F)[C@@H](C)O)[C@@H](C)CC)[C@@H](C)CC)[C@@H](C)CC)C(=O)N[C@@H](CC(=O)O)C(=O)N[C@@H](Cc1ccccc1)C(=O)N[C@H](C(=O)N[C@@H](CC(N)=O)C(=O)N[C@@H](Cc1c[nH]c2ccccc12)C(=O)N[C@@H](CC(C)C)C(=O)N[C@@H](CC(C)C)C(=O)N[C@@H](C)C(=O)N[C@@H](CCC(N)=O)C(=O)N[C@@H](CCCCN)C(=O)NCC(=O)N[C@@H](CCCCN)C(=O)N[C@@H](CCCCN)C(=O)N[C@@H](CC(N)=O)C(=O)N[C@@H](CC(=O)O)C(=O)N[C@@H](Cc1c[nH]c2ccccc12)C(=O)N[C@@H](CCCCN)C(=O)N[C@@H](Cc1c[nH]cn1)C(=O)N[C@@H](CC(N)=O)C(=O)N[C@H](C(=O)N[C@H](C(=O)N[C@@H](CCC(N)=O)C(=O)O)[C@@H](C)O)[C@@H](C)CC)C(C)C)C(=O)O, the fragment formed was 15% (Trypsin (Sus scrofa, UniProt P00761); LC-MS, refers to: fragment 1-32; 18 h, pH 8.0, 37 °C, together with: trypsin 2.5 mg/mL).
With CC(C)C[C@H](NC(=O)[C@@H](CCCCNC(=O)[C@@H](Cc1ccccc1)NC(=O)CCCCCNC(=O)CN1CCN(CC(=O)O)CCN(CC(=O)O)CCN(CC(=O)O)CC1)NC(=O)[C@H](Cc1ccc(O)cc1)NC(=O)[C@H](CO)NC(=O)[C@H](Cc1c[nH]c2ccccc12)NC(=O)[C@H](Cc1c[nH]cn1)NC(=O)[C@@H]1CCC(=O)N1)C(=O)N[C@@H](CCCNC(=N)N)C(=O)N1CCC[C@H]1C(=O)NCC(N)=O [indium-111 labelled] the tissue uptake was 0.37 ± 0.08 %ID/g (female athymic nude mice, spleen; intravenous, 0.037 MBq, 0.5 h).
CCCC[C@H](NC(=O)COCCOCCNC(=O)CN1CCN(CC(=O)O)CCN(CC(=O)O)CC1)C(=O)N[C@H]1CC(=O)NCCCC[C@@H](C(N)=O)NC(=O)[C@H](Cc2c[nH]c3ccccc23)NC(=O)[C@H](CCCNC(=N)N)NC(=O)[C@@H](Cc2ccccc2)NC(=O)[C@H](Cc2c[nH]cn2)NC1=O [technetium-99m labelled] has a tissue uptake of 0.52 ± 0.07 %ID/g (C57 mouse, stomach; intravenous, 0.037 MBq, 2 h).
With OC[C@@H]1[C@@H](O)[C@H](O)[C@@H](O)CN1CCCCCOCc1ccccc1-c1ccccc1 the IC50 was 0.05 µM (Ugcg; enzyme activity, inhibitor, fluorescence).
O=C(CN1CCCCC1)Nc1ccc([C@H]2[C@@H](F)[C@@H](F)C[C@@H](F)[C@H]2F)cc1 gave a hepatic clearance of 33 mL/min/kg (rat liver microsomes; 1 µM).
Under “revertant fold increase”, O=C1C2CC3CC1CC(C(=O)N1CCN(c4ccc([N+](=O)[O-])c5ncccc45)CC1)(C3)C2 is recorded as 1.1 (Salmonella typhimurium; Ames test; TA100; 0.31 µg/well, with S9; reference: vehicle).
The mean revertants of CCN(CC)CC#CCNc1ccnc2cc(Cl)ccc12 is reported as 80 revertants/well (Salmonella typhimurium; mini-Ames test; TA102; 1000.0 µg/well, with rat liver S9).
For CC(C)Cc1ccc(C(C)C(=O)N[C@@H](CCCCNC(=O)CCOCCOCCOCCOCCOCCOCCNC(=O)CN2CCN(CC(=O)[O-])CCN(CC(=O)[O-])CCN(CC(=O)[O-])CC2)C(=O)Nc2cccc3c(C(=O)NCC(=O)N4CC(F)(F)C[C@H]4C#N)ccnc23)cc1.[177Lu+3] (stereo partly drawn), the tracer uptake was 2.71 %ID/g (U-87 MG tumour model; host not given, liver; 24 h, tumour-bearing).
The revertant colonies of O=C1NC2(CC2)COc2ncc(F)cc2[C@H]2COCCN2c2ccn3ncc1c3n2 is reported as 19 ± 6 revertants/plate (Salmonella typhimurium; Ames test; TA98; 5000 µg/plate, 48 h, together with: rat liver S9).
CC(C)CC(=O)Nc1ccc([C@H]2[C@@H](F)[C@@H](F)C[C@@H](F)[C@H]2F)cc1 gave a hepatic clearance of 36 mL/min/kg (hepatocyte stability; cryopreserved mouse hepatocytes; 1 µM).
For C=C(NC(=O)c1csc(-c2nc3c(cc2O)-c2nc(cs2)C(=O)NC(C(C)O)C(=O)NC(=C(C)OC)c2nc(cs2)C(=O)NC2c4nc(cs4)C(=O)NC(COC(=O)c4c5c6c(cccc6n4O)COC(=O)C(OC4CC(C)(O)C(N(C)C)C(C)O4)C2OC5)c2nc-3cs2)n1)C(N)=O (stereo not drawn), the MRT(0-last) was 42.6 min (Sprague-Dawley rat, male, plasma; intravenous infusion, 2 mg/kg single dose).

Some of these lines once more:
With N#C[C@@H]1CC(F)(F)CN1C(=O)CNC(=O)c1ccnc2c(NC(=O)[C@@H](N)CCCCNC(=O)CCOCCOCCOCCOCCOCCOCCNC(=O)CN3CCN(CC(=O)[O-])CCN(CC(=O)[O-])CCN(CC(=O)[O-])CC3)cccc12.[177Lu+3] the tracer uptake was 1.17 %ID/g (U-87 MG tumour model; host not given, bone; 1 h, tumour-bearing).
Under “revertant fold increase”, O=C1C2CC3CC1CC(C(=O)N1CCN(c4ccc([N+](=O)[O-])c5ncccc45)CC1)(C3)C2 is recorded as 1.1 (Salmonella typhimurium; Ames test; TA100; 0.31 µg/well, with S9; reference: vehicle).
